Experimental data pooled from the literature.
Each line is one published result; not all experiments were run side by side. Values joined by “and” are separate records of one study, mostly repeats; a detail may differ. ± marks the error that the study gave.

The AUC of `Nc1ccc(-c2nc([C@H]3CCc4cc(-c5cc(Cl)ccc5-n5cnnn5)cc(=O)n43)c(F)[nH]2)c(F)n1` is reported as 541 ng·h/mL (human, plasma; oral, 5 mg, single dose, fasted).
`NC1(c2ccc(-c3nc4ccn5c(=O)[nH]nc5c4cc3-c3ccccc3)cc2)CCC1` — result for “apparent volume of distribution”: 2230 ± 646 L (human, expansion; oral, 135 mg).
`CSc1cc(C)nc(SC)c1NC(=O)CN1CCN(CCSc2nc3ccccc3[nH]2)CC1.Cl` has a half-life of 0.26 ± 0.0717 h (CD-1 mouse, female, cerebrum; intranasal, 32.4 µg/10 µL, 7 days repeated).
The AUC(0-t) of `CNCc1ccc(-c2[nH]c3cc(F)cc4c3c2CCNC4=O)cc1` is reported as 1810 ng·h/mL (human patients, plasma; oral, 40 mg once daily, day 15, 24 h, steady state, arithmetic mean).
With `CC1=C2C[C@H]3[C@@H](CC[C@@H]4C[C@H](NS(C)(=O)=O)CC[C@@]43C)[C@@H]2CC[C@@]2(C1)O[C@@H]1C[C@H](C)CN[C@H]1[C@H]2C` the Tmax was 5 h (patients, plasma; oral, 180 mg daily, day 22, cycle 1).
For `C[C@]12CC[C@@H]3c4ccc(O)cc4CC[C@H]3[C@@H]1C[C@@H](O)[C@@H]2O`, “minimum serum concentration” read 0 ng/mL (GC-MS; breast cancer women on NSAI, serum; vaginal, 0.03 mg, 24 h, day 0).
`CCc1cn([C@@H]2O[C@H](CO)[C@@H](O)[C@H]2O)c2ncnc(C)c12`: “remaining parent compound” 100% (mouse liver microsomes; 0 min, with: NADPH).
For `COc1ccc2nc([S@@+]([O-])Cc3ncc(C)c(OC)c3C)[nH]c2c1`, the adverse events was 8% (human healthy; 40 mg, respiratory thoracic mediastinal disorders).
`O=C(CCc1ccc(F)cc1)c1ccccc1OCC(O)CN1CCN(C(c2ccccc2)c2ccccc2)CC1` (stereo not drawn) gave a scaled CLint of 4.8 mL/min/kg (metabolic stability; human, liver microsomes; 20 µM, pH 7.4).
`Cn1c(-c2ccc(C(N)=O)cc2F)nnc1C(C)(C)Oc1c(F)cc(Cl)cc1F` has a Cmax median of 236 ng/mL (young non-Japanese adults, plasma; oral, 20 mg single dose, day 1, high-dose multiple-dose study).
For `C[C@@H]1O[C@@H](Oc2c(-c3ccc(O)c(O)c3)oc3cc(O)cc(O)c3c2=O)[C@H](O)[C@H](O)[C@H]1O`, the concentration was 150 ng/mL (human, urine; oral, dose not given, 5 h).
For `Cc1ccc2[nH]c(=O)c(CC(=O)O)c(-c3ccccc3)c2c1`, the pKa1 was 4.22 ± 0.01 (UV-metric titration; water; 25.0 °C).
`O=C1N=C(N2CCOCC2)CN1c1ccc(Cl)cc1` gave a Cmax of 16000 ng/mL (beagle dog, male, plasma; oral, 30 mg/kg, tablets, fasted).
With `COc1cccc(CN)c1O` the brain concentration was 126 µM (mouse C57BL/6N male, brain; oral drinking water, 5 g/L/day, 1 week).
`CC1(C)Oc2cc3oc(=O)ccc3cc2C[C@@H]1O`: “plasma Gluc level” 336 ± 37.2 mg/dL (male CD-1 mouse, plasma; oral gavage, 80 mg/kg daily, 4 weeks).
`des-acyl ghrelin (human)` — result for “initial brain distribution volume”: 1.55 ± 0.67 µL/g (multiple-time regression; Ghsr knockout mice, whole brain; intravenous, dose not given).
For `Cc1cc(Nc2ncc(Cl)c(Nc3ccccc3S(=O)(=O)C(C)C)n2)c(OC(C)C)cc1C1CCNCC1`, the Kp was 34.7 and 64.2 and 22.9 (human, brain tumour patients, enhancing tumour over plasma; oral, 450 mg/day, 6 to 8 h after dose 10, total drug).
Under “apparent terminal half-life”, `CCCOc1ccc([C@H]2CNC(=O)N2c2ccc3[nH]cnc3c2)cc1` is recorded as 7.47 h (human volunteers fed, plasma; oral capsule, 1200 mg single dose, day 1, geometric mean).
`Cl.NCCc1c[nH]c(=S)n1[C@H]1COc2c(F)cc(F)cc2C1` has an exposure ratio of 1.5 to 6.7 (healthy young male human, plasma; oral, 25 to 600 mg; reference: NAT2 slow over rapid acetylators).
`TWPKHFDKHTFYSILKLGKH-OH (C-acid)` has a brain uptake of 0.22 ± 0.052% (in situ brain perfusion; peptide, male C57BL/6J mouse, right brain hemisphere; 5 min, 1.15 mL/min perfusion, 1 min wash; reference: input).
`CC(C)=CCC[C@](C)(O[C@@H]1O[C@H](CO)[C@@H](O)[C@H](O)[C@H]1O)[C@H]1CC[C@]2(C)[C@@H]1[C@H](O)C[C@@H]1[C@@]3(C)CC[C@H](O)C(C)(C)[C@@H]3[C@@H](O[C@@H]3O[C@H](CO)[C@@H](O)[C@H](O)[C@H]3O[C@@H]3O[C@@H](C)[C@H](O)[C@@H](O)[C@H]3O)C[C@]12C` gave a CL/F of 388 ± 108 mL/min/kg (Sprague Dawley rat, male, plasma; oral, 45 mg/kg, pure ginsenoside mixture in water).
`CCN1CC(=O)N[C@@H](CC(C)C)C(=O)N(C)[C@@H](C)C(=O)N[C@@H](CC(C)C)C(=O)N2CCC[C@@H]2C(=O)N(CC2CCOCC2)CC(=O)N[C@@H](CC(C)C)C(=O)N(C)[C@@H](C)C(=O)N[C@@H](Cc2ccccc2)C(=O)N2CCC[C@@H]2C1=O` has an oral bioavailability of 5% (mouse; with: 1-aminobenzotriazole pretreatment).
`Cc1c2oc3c(C)ccc(C(=O)N[C@@H]4C(=O)N[C@H](C(C)C)C(=O)N5CCC[C@H]5C(=O)N(C)CC(=O)N(C)[C@@H](C(C)C)C(=O)O[C@@H]4C)c3nc-2c(C(=O)N[C@@H]2C(=O)N[C@H](C(C)C)C(=O)N3CCC[C@H]3C(=O)N(C)CC(=O)N(C)[C@@H](C(C)C)C(=O)O[C@@H]2C)c(N)c1=O` has a half-life of 3.2 h (mouse, Abcc2−/− knockout, FVB background, kidney; intravenous, 0.5 mg/kg).
The blood glucose of `NCCCC[C@@H]1NC(=O)[C@@H](Cc2c[nH]c3ccccc23)NC(=O)[C@H](c2ccccc2)NC(=O)[C@@H]2C[C@@H](OC(=O)NCCN)CN2C(=O)[C@H](Cc2ccccc2)NC(=O)[C@H](Cc2ccc(OCc3ccccc3)cc2)NC1=O` is reported as 127 mg/dL (healthy human volunteers; subcutaneous, 200 µg, 2 h, post-prandial).
`Cc1ccc(-c2cc(C(F)(F)F)nn2-c2ccc(S(N)(=O)=O)cc2)cc1`: “plasma protein binding” 98.22 ± 0.3% (equilibrium dialysis; dogs, albumin H1/H1 and H2/H2, plasma; 4 µM, 4 h, 37 °C).
`CCn1cc(-c2nc(C)no2)c(=O)c2cc(F)c(N3CCC(C)CC3)cc21` has a microsomal CLint of 12.4 µL/min/mg (metabolic stability; human, liver microsomes; 1 µM).
With `CC[C@H](C)[C@@H]1NC(=O)[C@H](Cc2ccc(O)cc2)NC(=O)[C@@H](N)CSSC[C@@H](C(=O)N2CCC[C@H]2C(=O)N[C@@H](CC(C)C)C(=O)NCC(N)=O)NC(=O)[C@H](CC(N)=O)NC(=O)[C@H](CCC(N)=O)NC1=O` the AUC(0-t) was 266 ± 113 pg·30 min/sample (microdialysis, radioimmunoassay; knock-out male mice lacking compound, amygdala extracellular fluid; intranasal, 12 µg, total area from zero).
For `liraglutide`, “plasma protein binding” read 99.7% (equilibrium dialysis; human plasma pooled; 10 nM, pH 7.4, 37 °C).
For `CC(C)C[C@H](NC(=O)[C@H](CCCNC(=N)N)NC(=O)[C@H](CC(N)=O)NC(=O)[C@H](CC(=O)O)NC(=O)[C@H](CCCNC(=N)N)NC(=O)CNC(=O)CNC(=O)CNC(=S)Nc1ccc(C[C@H]2CN(CC(=O)O)CCN(CC(=O)O)CCN2CC(=O)O)cc1)C(=O)N[C@@H](CC(N)=O)C(=O)N[C@H](C(=O)NCC(=O)NCC(=O)N[C@H](C(=O)N[C@@H](Cc1ccc(O)cc1)C(=O)N[C@@H](Cc1ccccc1)C(=O)N[C@@H](CC(C)C)C(=O)N[C@H](C(=O)N[C@H](C(=O)N[C@@H](CCCNC(=N)N)C(=O)N[C@@H](CCC(N)=O)C(=O)O)[C@@H](C)O)[C@@H](C)O)[C@@H](C)O)C(C)C` [fluorine-18 labelled], “intact parent radiotracer” read 93 ± 2.77% (radio-HPLC; mouse (HepG2 tumour-bearing), liver; intravenous, 5.55 MBq, 1 h).
`COC(=O)C[C@](O)(CCCC(C)(C)O)C(=O)O[C@@H]1C(OC)=C[C@]23CCCN2CCc2cc4c(cc2[C@H]13)OCO4` — result for tissue concentration: “not detected” (CD1 mouse, stomach; oral, 1 mg/kg, 24 h, below quantification limit 1.00 ng/mL).
For `O=C(c1nc2n(n1)[C@H](c1ccccc1)C[C@@H]2F)C1CC1`, the concentration was 535 ng/mL (human, plasma; oral, 150 mg, 24 h, single dose, fasted, healthy volunteers).
`O=C(c1ccc2ncc(-c3ccc4ncccc4c3)nc2c1)N1CCCCC1` has a half-life of 2.07 h (ICR/CD-1 mouse, female, liver S9; 2 µM, pH 7.5).
`Cc1nc2cccc(OCC(C)(C)C(=O)NC(C)C)c2c(N)c1C(=O)O` gave a Cmax of 190 ± 79.5 ng/mL (female Sprague-Dawley rat, plasma; oral gavage, 100 mg/kg, day 7).

For quick reference, copied from above:
`NC1(c2ccc(-c3nc4ccn5c(=O)[nH]nc5c4cc3-c3ccccc3)cc2)CCC1` — result for “apparent volume of distribution”: 2230 ± 646 L (human, expansion; oral, 135 mg).
`CSc1cc(C)nc(SC)c1NC(=O)CN1CCN(CCSc2nc3ccccc3[nH]2)CC1.Cl` has a half-life of 0.26 ± 0.0717 h (CD-1 mouse, female, cerebrum; intranasal, 32.4 µg/10 µL, 7 days repeated).
The AUC(0-t) of `CNCc1ccc(-c2[nH]c3cc(F)cc4c3c2CCNC4=O)cc1` is reported as 1810 ng·h/mL (human patients, plasma; oral, 40 mg once daily, day 15, 24 h, steady state, arithmetic mean).
